# Measured values from different studies.
# Protocols differ between the studies behind these lines.
# Cell line: MDA-MB-231
# Observed: cell growth or viability
Compound,technique,tested at,time,quantity,result
O=C(Nc1ccc(Cl)cc1)Nc1ccc(Oc2nc3ccccc3n3cnnc23)cc1,MTT,12.5 µM,24 h,viability,88.7%
CCc1c(C)c2ccc(OCC(=O)NNC(=S)Nc3ccccc3)c(C)c2oc1=O,MTT,62.5 µg/mL,,viability,21.1%
COc1ccc2/c(=N/c3ccccc3NC(=O)[C@@H](N)CO)cc(-c3ccc4c(c3)OCCO4)oc2c1,CCK-8,1 µM,,inhibition,6.42%
CCc1c(C)c2ccc(OCC(=O)NN=Cc3ccc([N+](=O)[O-])cc3)cc2oc1=O,MTT,125 µg/mL,,viability,23.2%
COc1ccc2oc(-c3ccc4nc(N)oc4c3)c/c(=N\c3ccccc3NC(=O)CCN)c2c1,CCK-8,1 µM,,inhibition,70.7%
CCc1c(C)c2ccc(OCc3nnc(S)n3N)c(C)c2oc1=O,MTT,125 µg/mL,,viability,13.5%
NCCC(=O)Nc1ccccc1/N=c1\cc(-c2ccc3c(c2)OCO3)oc2ccccc12,CCK-8,1 µM,,inhibition,26.5%
CCCOc1ccc2c(C)c(CC)c(=O)oc2c1C,MTT,125 µg/mL,,viability,86.3%
CCOC(=O)C(C(C)=O)=C1Sc2nc3ccc(S(=O)(=O)N4CCCC4)cc3nc2S1,MTT,1.56 µM,24 h,viability,57.5%
COc1cccc(NC(=O)Nc2ccc(Oc3nc4ccccc4n4cnnc34)cc2)c1,MTT,1.56 µM,24 h,viability,100%
O=C1CCCCC1=C1Sc2nc3ccc(S(=O)(=O)N4CCCC4)cc3nc2S1,MTT,6.25 µM,24 h,viability,55.7%
CC(C)(C)[C@H](N)C(=O)Nc1ccccc1/N=c1\cc(-c2ccc3c(c2)OCCO3)oc2cc(F)ccc12,CCK-8,1 µM,,inhibition,-0.47%
C=CCOc1ccc2c(C)c(CC)c(=O)oc2c1C,MTT,500 µg/mL,,viability,5.28%
NCC(=O)Nc1ccccc1/N=c1\cc(-c2ccc3c(c2)OCCO3)oc2ccccc12,CCK-8,1 µM,,inhibition,-9.47%
N#CC(C(=O)Nc1cccc(C(F)(F)F)c1)=C1Sc2nc3ccc(S(=O)(=O)N4CCCC4)cc3nc2S1,MTT,6.25 µM,24 h,viability,68.3%
O=C(Nc1ccc(Oc2nc3ccccc3n3cnnc23)cc1)Nc1cccc(Cl)c1,MTT,6.25 µM,24 h,viability,82.5%
CCOc1ccc2c(C)c(CC)c(=O)oc2c1C,MTT,125 µg/mL,,viability,76.5%
NCCC(=O)Nc1ccccc1/N=c1\cc(-c2ccc3oc(N)nc3c2)oc2ccccc12,CCK-8,1 µM,,inhibition,29.3%
Cc1c(Cc2ccccc2)c(=O)oc2c(C)c(OCC(=O)NN=Cc3ccc([N+](=O)[O-])cc3)ccc12,MTT,250 µg/mL,,viability,13.9%
COc1ccc2/c(=N/c3ccccc3NC(=O)N3CCOCC3)cc(-c3ccc4c(c3)OCCO4)oc2c1,CCK-8,1 µM,,inhibition,6.88%
CNC(=O)c1cc(Oc2ccc(NC(=O)Nc3ccc(Cl)c(C(F)(F)F)c3)cc2)ccn1,MTT,12.5 µM,24 h,viability,32.1%

# For quick reference, copied from above:
Compound,technique,tested at,time,quantity,result
CC(C)(C)[C@H](N)C(=O)Nc1ccccc1/N=c1\cc(-c2ccc3c(c2)OCCO3)oc2cc(F)ccc12,CCK-8,1 µM,,inhibition,-0.47%
C=CCOc1ccc2c(C)c(CC)c(=O)oc2c1C,MTT,500 µg/mL,,viability,5.28%
NCC(=O)Nc1ccccc1/N=c1\cc(-c2ccc3c(c2)OCCO3)oc2ccccc12,CCK-8,1 µM,,inhibition,-9.47%
